Experimental data gathered from unrelated publications.
Numbered parts are unrelated; each lists some results of a single study. Changes are numbered by the printed parent chain.

Series 1 — method: universal PBM; molecule type: double-stranded DNA, one strand shown; medium: in vitro; concentration: not given; direction: higher = stronger binding
Target: Sal-like protein 4, full length isoform B (SALL4, Homo sapiens, UniProt Q9UJQ4-2, residues 1-616)
Setting: 8-mer, flanks averaged, mean of replicates
Construct (chain): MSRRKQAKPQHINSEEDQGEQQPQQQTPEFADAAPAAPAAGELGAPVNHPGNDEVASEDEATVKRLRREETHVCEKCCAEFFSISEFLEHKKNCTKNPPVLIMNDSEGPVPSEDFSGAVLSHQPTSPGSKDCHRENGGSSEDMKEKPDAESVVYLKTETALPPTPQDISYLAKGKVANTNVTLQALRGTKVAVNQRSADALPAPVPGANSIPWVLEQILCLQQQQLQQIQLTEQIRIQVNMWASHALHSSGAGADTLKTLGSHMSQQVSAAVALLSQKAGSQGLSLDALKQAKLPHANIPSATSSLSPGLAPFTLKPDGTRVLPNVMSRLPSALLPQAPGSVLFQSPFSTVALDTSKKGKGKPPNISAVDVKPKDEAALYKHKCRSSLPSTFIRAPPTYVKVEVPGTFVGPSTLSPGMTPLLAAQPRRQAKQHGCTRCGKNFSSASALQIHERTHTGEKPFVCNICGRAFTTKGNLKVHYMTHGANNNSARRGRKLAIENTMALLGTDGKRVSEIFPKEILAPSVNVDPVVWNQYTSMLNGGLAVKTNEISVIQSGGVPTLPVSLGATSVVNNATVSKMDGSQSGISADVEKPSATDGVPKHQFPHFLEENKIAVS
The E-score of `AACACGCA` is reported as 0.0957.
`CACGCACG` has an E-score of -0.189.
With `AGGGAAAG` the E-score was 0.017.
With `CTGCTATC` the E-score was -0.0611.
`GCACGTTA` gave an E-score of -0.0218.
The E-score of `CAACAAAC` is reported as -0.139.
`GGGACTCA` has an E-score of -0.273.
The E-score of `AAATTCCT` is reported as 0.0407.
`GAACCTTC` gave an E-score of -0.0555.

Series 2 — method: protein binding microarray; molecule type: double-stranded DNA, one strand shown; medium: in vitro; concentration: not given; baseline: not given; direction: higher = stronger binding
Target: Histone acetyltransferase KAT6A, winged helix 2, GST fusion (KAT6A, Homo sapiens, UniProt Q92794, residues 85-181)
Setting: 8-mer, flanks averaged, mean of 2 arrays, mostly near background
Residues (chain): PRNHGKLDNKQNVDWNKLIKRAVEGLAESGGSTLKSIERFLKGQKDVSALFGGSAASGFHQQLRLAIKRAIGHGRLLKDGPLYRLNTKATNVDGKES
For `AAATAATC`, the E-score was 0.0771.
For `AGGTTCTG`, the E-score was -0.0764.
`CAGATCTC` gave an E-score of -0.0929.
With `CCCCCTTC` the E-score was -0.0131.
`CTGGAGGC` has an E-score of 0.0307.
`TAACACCA` has an E-score of -0.0264.
The E-score of `AATGCCCC` is reported as -0.205.
For `CAATATCC`, the E-score was 0.0135.

Series 3 — target: CCNA1, cyclin fold, Cln2 fusion (human); method: yeast growth competition, sequencing; medium: yeast; setting: weak parent motif; baseline: not given; direction: higher = stronger binding
Starting sequence: ORC1 docking peptide (human); PRARKRLELGNLG; partner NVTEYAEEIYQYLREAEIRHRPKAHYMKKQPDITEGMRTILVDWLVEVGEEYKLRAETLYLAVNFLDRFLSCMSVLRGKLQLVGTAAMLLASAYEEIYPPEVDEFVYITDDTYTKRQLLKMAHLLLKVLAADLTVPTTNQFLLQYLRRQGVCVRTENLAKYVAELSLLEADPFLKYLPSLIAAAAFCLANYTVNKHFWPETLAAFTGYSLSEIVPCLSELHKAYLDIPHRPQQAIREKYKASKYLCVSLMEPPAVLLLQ
`G13E`: “normalised enrichment score” 0.569.
`E8A`: “normalised enrichment score” 0.417.
For `L12S`, “normalised enrichment score” read 0.529.
Under “normalised enrichment score”, `K5F` is recorded as 0.309.
`R2Y` — result for “normalised enrichment score”: 0.227.
`E8W` — result for “normalised enrichment score”: 0.297.
Under “normalised enrichment score”, `R6A` is recorded as 0.16.

Further values, each from its own experiment
`PhoQ, residues 284 288 289 292 302 303 SLCLSL` has a fold induction of 7.48 (PhoP, residues 12 14 15 18 19 NQGLL (Escherichia coli, UniProt P23836); Sort-seq, measured: YFP reporter; E. coli; PhoQ-PhoP variant library, with: 10 µM Mg2+; baseline: high Mg2+ state, higher = stronger signaling).

Repeated from above (series 3):
`R2Y` — result for “normalised enrichment score”: 0.227.
`E8W` — result for “normalised enrichment score”: 0.297.
